# Assay results from different studies.
# “And” joins repeats or separate records; there may be more than shown. ± marks the error that the study gave.
SMILES,target or system,test,test system,setting,how to read,measurement,value
Cc1nn(-c2nc3c(F)cc(F)cc3s2)c(O)c1C(c1ccc(C(F)(F)F)cc1)c1c(C)nn(-c2nc3c(F)cc(F)cc3s2)c1O,,,"mouse, cerulein-induced acute pancreatitis, serum",25 mg/kg,,serum amylase activity,153 mOD/min and 132 mOD/min and 129 mOD/min and 94.3 mOD/min and 183 mOD/min and 68.3 mOD/min and 86 mOD/min
COc1nc(-c2cc(C)c(N[C@@H](C)c3cc(F)cc(F)c3)nn2)ccc1-n1cnc(C)c1,,refers to: Aβ40,"rat Sprague-Dawley male, CSF","oral, 5 mg/kg daily for 9 days, 4 h after dose",reference: vehicle,change in level,29%
CCN1CCN(Cc2ccc(Nc3ncc(F)c(-c4cc(F)c5nc6n(c5c4)[C@H](C)CCC6)n3)nc2)CC1,,,human advanced solid tumours,"500 mg, phase Ia monotherapy RECIST 1.1",,complete response,0%
CC(C)n1c(C2CCNCC2)nc2c([N+](=O)[O-])c(Br)c(Br)cc21,,,"patients with AML, bone marrow",all dose levels,reference: baseline,minimum blast change,-100%
NCC(=O)Nc1cncc(-c2nn3c(=O)cc(N4CCNCC4)nc3s2)c1,,"ADP-induced platelet aggregation, light transmission aggregometry","human, stable CAD on aspirin, ex vivo platelets","subcutaneous, 0.05 mg/kg, 360 min post-dose, median value, added: ADP 20 µM",,inhibition,3.95%
COc1ccc([C@@H](O)c2cc(-c3ncnc4cc(N5CCOCC5)ccc34)c(F)cc2Cl)nn1,,RECIST version 1.1,"patients, advanced solid tumours","100 mg twice daily, added: avelumab",reference: patients,objective response rate,0%
COc1nnc2ccc(N3CCC(c4ccc(OCCN5CCN(C)C(=O)[C@H]5C)cc4)CC3)nn12,,,"cancer patients, plasma",2 to 40 mg,reference: predose,plasma MIP-1β level,decreased
CN(C)C(=O)c1cc2cnc(Nc3ccc(N4CCNCC4)cn3)nc2n1C1CCCC1,,,HR+/HER2− advanced breast cancer patients,"dose not given, region Latin America",,median PFS2,49.2 months
COc1cc2nccc(Oc3ccc(NC(=O)NC4CC4)c(Cl)c3)c2cc1C(N)=O,,PK/PD model bootstrap median,"Thyroid cancer patients, differentiated, radioiodine-refractory",,,rate constant of resistance appearance,0.248 /week
O=C(NS(=O)(=O)c1ccc(C(F)(F)F)cc1)c1cc2ccccc2n1Cc1ccc(Br)c2ccccc12,,,"mouse, acute hyperuricemia model",dose not given,,serum uric acid,351 µM and 374 µM and 255 µM and 243 µM and 232 µM and 259 µM
N#Cc1ccc2c(c1)[C@H]1CCCN(C(=O)c3ccc4[nH]cnc4c3)[C@H]1C2,,,"T2DM patients with overweight or obesity, plasma","oral, 160 mg, day 15 (360 h), multiple dosing, mean",,"plasma 1,5-anhydroglucitol",12.2 µg/mL
C[C@H](NC(=O)c1c(C(F)F)nn(C)c1Oc1cccc(C(F)(F)F)c1)c1ccc(C(=O)O)cc1,,irRECIST,"human, advanced tumours",750 mg,best overall response,complete response,0%
CCc1oc2ccccc2c1C(=O)c1cc(Br)c(O)c(Br)c1,,,"mouse, acute hyperuricaemia model",1 mg/kg,,serum uric acid,980 ± 208 µM
Cc1n[nH]c2ccc(-c3cc(OC[C@@H](N)Cc4ccccc4)cnc3-c3ccoc3)cc12,,"kinase binding, competitor, MIB/MS competition, refers to: GIN4",Candida albicans cell lysate,10 µM,reference: DMSO,log2 fold change,-0.625
Cc1[nH]c2ccccc2c1CCNCc1ccc(/C=C/C(=O)NO)cc1,OCI-Ly1,,,"0.5 µM, 120 h",,viability,0.53%
CSCCNc1nc(SCCC(F)(F)F)nc2c1ncn2[C@@H]1O[C@H](COP(=O)(O)OP(=O)(O)C(Cl)(Cl)P(=O)(O)O)[C@@H](O)[C@H]1O,,"ADP-induced platelet aggregation, Multiplate aggregometry","human patients, whole blood","dose not given, 30 min, AUC above 46",reference: patients,high residual platelet reactivity,14.3%
O=P(O)(O)C(Cl)(Cl)P(=O)(O)O,,"astrogliosis, immunostaining","Mus musculus, sham-operated, hippocampal fissure","dose not given, day 1",reference: total area,GFAP-positive area,3.57%
N#Cc1ccc2c(-c3ccncc3)c(-c3ccc(F)cc3)nn2c1,,"kinase binding, competitor, MIB/MS competition, refers to: CEK1",Candida albicans cell lysate,1 µM,reference: DMSO,log2 fold change,0.447
CC1(C)CCC(c2ccc(Cl)cc2)=C(CN2CCN(c3ccc(C(=O)NS(=O)(=O)c4ccc(N[C@H](CCN5CCOCC5)CSc5ccccc5)c(S(=O)(=O)C(F)(F)F)c4)cc3)CC2)C1,,cell kill,"primary neoplastic T lymphocytes, dog 25","24 h, T-cell CLL",,EC50,0.032 µM
C=CCn1c(=O)c2cnc(Nc3ccc(N4CCN(C)CC4)cc3)nc2n1-c1ccc2c(n1)[C@@](O)(CC)CC2,,,"A-427 xenograft, NOD/SCID mouse",20 mg/kg once daily,,tumour growth inhibition,16%
CN[C@@H](C)C(=O)N[C@H]1CN(S(=O)(=O)c2cccc(S(=O)(=O)N3CC[C@H]4CC[C@@H](C(=O)NC(c5ccccc5)c5ccccc5)N4C(=O)[C@@H](NC(=O)[C@H](C)NC)C3)c2)CC[C@H]2CC[C@@H](C(=O)NC(c3ccccc3)c3ccccc3)N2C1=O,,RECIST 1.1,advanced pancreatic cancer patients,"dose not given, added: nab-paclitaxel plus gemcitabine",,disease control rate,60%
O=C1c2ccncc2C(=O)c2c1[nH]c1ccccc21,,,female monocrotaline PAH rat,"intravenous, 1 mg/kg every 48 h, day 17 to 27",reference: vehicle,right ventricular fibrosis,decreased
COc1cc2cc(-c3ccc(CC(=O)Nc4cc(C(C)(C)C(F)(F)F)no4)cn3)cnc2cc1OC,,RECIST v1.1,RET-altered advanced solid tumour patients,"oral, 10 mg once daily, phase I",,disease control rate,100%
O=c1cc(-c2ccc(O)c(O)c2)oc2cc(O)cc(O)c12,,"Western blot, refers to: MRP2","duck, small intestine",dose not given,reference: untreated,protein level,decreased
C[C@@H](O)CCOC(=O)C[C@@H](C)O,,refers to: C5 acylcarnitine,"human, plasma","60 min, log2-transformed values",,metabolite level,-2.89 ± 0.74 µmol/L
CC(=O)NCC(=O)NCC(=O)N[C@H](C(=O)N[C@@H](Cc1ccc(O)cc1)C(=O)N[C@@H](CO)C(=O)N[C@H]1CSSC[C@@H](C(=O)N[C@@H](CCCNC(=N)N)C(=O)N2CCC[C@H]2C(=O)N[C@@H](CCC(N)=O)C(=O)N[C@@H](CCCNC(=N)N)C(=O)NCC(=O)NCCC(=O)N[C@@H](CCCCNC(=O)CN(CC(=O)NCCCC[C@H](NC(=O)CCNC(=O)CNC(=O)[C@H](CCCNC(=N)N)NC(=O)[C@H](CCC(N)=O)NC(=O)[C@@H]2CCCN2C(=O)[C@H](CCCNC(=N)N)NC(=O)[C@@H]2CSSC[C@H](NC(=O)[C@H](CO)NC(=O)[C@H](Cc3ccc(O)cc3)NC(=O)[C@@H](NC(=O)CNC(=O)CNC(C)=O)[C@@H](C)O)C(=O)N[C@@H](Cc3c[nH]cn3)C(=O)N[C@@H](Cc3ccccc3)C(=O)NCC(=O)N[C@@H](C)C(=O)N[C@@H](CC(C)C)C(=O)N[C@@H]([C@@H](C)O)C(=O)N[C@@H](Cc3c[nH]c4ccccc34)C(=O)N[C@@H](C(C)C)C(=O)N2)C(N)=O)C(=O)CCN)C(N)=O)NC(=O)[C@H](C(C)C)NC(=O)[C@H](Cc2c[nH]c3ccccc23)NC(=O)[C@H]([C@@H](C)O)NC(=O)[C@H](CC(C)C)NC(=O)[C@H](C)NC(=O)CNC(=O)[C@H](Cc2ccccc2)NC(=O)[C@H](Cc2c[nH]cn2)NC1=O)[C@@H](C)O,,,healthy BALB/c mice,"subcutaneous, 0.08 mg/kg, 8 d, single dose",,haemoglobin,151 g/L
FC(F)(F)Oc1cccc(-c2cnc3ccc(-c4ccncc4)nn23)c1,,,"MDA-MB-231 xenograft, NSG mouse","oral, 10 mg/kg daily, day 8",higher = larger tumour,tumour size,0.0506 a.u. and 0.148 a.u. and 0.0625 a.u. and 0.075 a.u.
CC(C)(O)c1coc(S(=O)(=O)NC(=O)c2cc3ccccc3n2Cc2ccc(Br)c3ccccc23)c1,,,"mouse, acute hyperuricaemia model, serum","oral, 2 mg/kg",reference: vehicle model,serum uric acid decrease,75.4%
CO[C@H]1CC[C@H](N2C(=O)CNc3ncc(-c4ccc(C(C)(C)O)nc4)nc32)CC1,,flow cytometry,"stimulated B cells, human, blood","30 mg single dose, 24 h, median",reference: baseline,pS6RP change from baseline,-13.8%
COc1cc2nccc(Oc3ccc(NC(=O)c4cc5c(n(-c6ccccc6)c4=O)CCCC5=O)nc3)c2cc1OC,,,"MOLM-13 luc/GFP, mouse xenograft AML","in feed, 0.004% in feed",reference: compound over control,hazard ratio,0.0498
CC(C)NCC(O)c1ccc(O)c(O)c1 (centres unmarked),,,"ventricular cardiomyocytes, C57BL/6 mouse","dose not given, 0.384 s",,sarcomere length,1.72 µm
Cn1cc(Nc2nccc(-c3ccc4c(c3)CN(C3COC3)CC[C@H]4NC(=O)c3cn(C(C)(C)C)nn3)n2)cn1,,refers to: mevalonate pathway I,"splenic B cells, mice","30 mg/kg, IgD-activated in vivo","reference: vehicle, direction not given",pathway activation z-score,-1.34
Cc1nc(-c2ccc(OCC(C)C)c(C#N)c2)sc1C(=O)O,,,"mouse, acute hyperuricaemia model, serum","oral, 2 mg/kg",reference: vehicle model,serum uric acid decrease,96.2%
c1ccc(-c2n[nH]cc2-c2ccnc3ccccc23)nc1,,"kinase binding, competitor, MIB/MS competition, refers to: TPK2",Candida albicans cell lysate,100 nM,reference: DMSO,log2 fold change,1.56
C[C@H]1C[C@H]2CSC(N)=N[C@@]2(c2nc(NC(=O)c3ccc(OC(F)F)cn3)cs2)CO1,,refers to: Aβ1-40,"healthy adults, plasma","5 mg once daily, day 7",reference: placebo,percent change from baseline,-58.2%
O=S(=O)(NCCNC/C=C/c1ccc(Br)cc1)c1cccc2cnccc12,,embryonic development,mouse zygotes,"20 µM, 72 h post-hCG",,two-cell embryos,35% and 47.1% and 73.7%
COc1ccc(-c2cncc(N[C@@H](C)c3cccc(NC(=O)c4cncc(C)c4)c3)n2)cc1OC,,refers to: rno-miR-323-3p,"rat SU5416/hypoxia model, lung",dose not given,reference: SU5416/hypoxia vehicle,fold change,1.29
Cc1cc(C)c(CNC(=O)c2cc(Cl)c3c(c2C)O[C@@](C)([C@H]2CC[C@H](N(C)C)CC2)O3)c(=O)[nH]1,,,relapsed/refractory ATLL patients,"dose not given, modified ATLL criteria 2009",,objective response rate (CR+CRu+PR),64%
C[C@H](Oc1ccc(Br)cc1-c1ccon1)C(=O)O,,last response latency,"human, tibialis anterior muscle","1200 mg, 15 Hz, SAD",,difference from placebo,1.74%
O=C(O)CNC(=O)Cc1ccccc1,,,"ventricular cardiomyocytes, C57BL/6 mouse","dose not given, 0.408 s",,sarcomere length,1.72 µm
[Cl-].[Cl-].[Pt+2].[Ru+2].c1ccc(-c2nc3cc4ccccc4cc3nc2-c2ccccn2)nc1.c1cnc2c(c1)ccc1cccnc12.c1cnc2c(c1)ccc1cccnc12,,"chloride substitution, UV-vis kinetics",aqueous buffer,"pH 7.2, 35 °C, second substitution step, added: thiourea",,activation free energy,81 ± 3 kJ/mol
NC(=O)c1cnc2[nH]ccc2c1N[C@@H]1[C@@H]2CC3C[C@H]1C[C@@](O)(C3)C2,,"CD4+ effector memory T cells, flow cytometry","Caucasian humans, peripheral blood",60 mg single dose,reference: baseline,percent change,0.02%
O=C(NS(=O)(=O)c1cccc(Br)c1)c1cc2ccccc2n1Cc1ccc(Br)c2ccccc12,,,"mouse, acute hyperuricemia model",dose not given,,serum uric acid,386 µM and 458 µM and 738 µM and 618 µM and 314 µM and 238 µM and 476 µM
CC(C)C[C@H](NC(=O)[C@@H](Cc1c[nH]c2ccccc12)NC(=O)[C@H](Cc1ccc(O)cc1)NC(=O)[C@H](CO)NC(=O)[C@H](Cc1c[nH]c2ccccc12)NC(=O)[C@H](Cc1c[nH]cn1)NC(=O)[C@@H]1CCC(=O)N1)C(=O)N[C@@H](CCCNC(=N)N)C(=O)N1CCC[C@H]1C(=O)NCC(N)=O,,,"Chinese children, central precocious puberty, serum","intramuscular, 22.5 mg day 1, month 6, month 9",,basal FSH level,1.4 IU/L
N#CCC1CCN(c2nc(Nc3ccc(N4CCC(O)CC4)cc3)c3c(=O)[nH]ncc3n2)CC1,,Olink multiplex,"human, serum","40 mg, day 29, unit not given",reference: baseline,osteopontin level change,-1.28
OC(CCN1CCCCC1)(c1ccccc1)C1CC2C=CC1C2 (centres unmarked),,resting-state EEG,healthy elderly humans,"oral, 4 mg, eyes open, LS mean",,"EEG theta power, O1 Pz",4.8 µV²
[Cl-].[Cl-].[Pt+2].[Ru+2].c1ccc(-c2nc3ccccc3nc2-c2ccccn2)nc1.c1cnc2c(c1)ccc1cccnc12.c1cnc2c(c1)ccc1cccnc12,,,,"concentration not given, first substitution step, added: thiourea",,activation enthalpy,27 ± 1 kJ/mol

# A few entries again:
SMILES,target or system,test,test system,setting,how to read,measurement,value
CC(C)(O)c1coc(S(=O)(=O)NC(=O)c2cc3ccccc3n2Cc2ccc(Br)c3ccccc23)c1,,,"mouse, acute hyperuricaemia model, serum","oral, 2 mg/kg",reference: vehicle model,serum uric acid decrease,75.4%
Cn1cc(Nc2nccc(-c3ccc4c(c3)CN(C3COC3)CC[C@H]4NC(=O)c3cn(C(C)(C)C)nn3)n2)cn1,,refers to: mevalonate pathway I,"splenic B cells, mice","30 mg/kg, IgD-activated in vivo","reference: vehicle, direction not given",pathway activation z-score,-1.34
Cc1nc(-c2ccc(OCC(C)C)c(C#N)c2)sc1C(=O)O,,,"mouse, acute hyperuricaemia model, serum","oral, 2 mg/kg",reference: vehicle model,serum uric acid decrease,96.2%
CC(C)C[C@H](NC(=O)[C@@H](Cc1c[nH]c2ccccc12)NC(=O)[C@H](Cc1ccc(O)cc1)NC(=O)[C@H](CO)NC(=O)[C@H](Cc1c[nH]c2ccccc12)NC(=O)[C@H](Cc1c[nH]cn1)NC(=O)[C@@H]1CCC(=O)N1)C(=O)N[C@@H](CCCNC(=N)N)C(=O)N1CCC[C@H]1C(=O)NCC(N)=O,,,"Chinese children, central precocious puberty, serum","intramuscular, 22.5 mg day 1, month 6, month 9",,basal FSH level,1.4 IU/L
CN(C)C(=O)c1cc2cnc(Nc3ccc(N4CCNCC4)cn3)nc2n1C1CCCC1,,,HR+/HER2− advanced breast cancer patients,"dose not given, region Latin America",,median PFS2,49.2 months
